Measurements of several laboratories.
Parts stem from different laboratories: compare values within a part only. Positions count from the first letter of the parent shown.

Study 1
Target: RNA binding protein fox-1 homolog 2, RRM domain, GST-SBP tag (RBFOX2, Homo sapiens, UniProt O43251-10, residues 100-194)
Technique: RNA Bind-n-Seq
Form: RNA
Medium: in vitro
Tested at: 365 nM
Setting: natural RNA segment, single round, ends assumed
Baseline: no-protein control
Reading: higher = stronger binding
Constant ends, left off below: GGGAGUUCUACAGUCCGACGAUC … UGGAAUUCUCGGGUGCCAA
Target sequence (chain): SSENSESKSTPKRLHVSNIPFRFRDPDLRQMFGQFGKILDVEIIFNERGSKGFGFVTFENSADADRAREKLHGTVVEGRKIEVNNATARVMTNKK
| Strand | RBNS enrichment (R) |
| --- | --- |
| UUACUGCUAUUUUAAAAUGUCUUGAUUAUUGAAUGUGAGACCCUCUGACAUGAUUUGAGAAGCUGCACACAUAGGCAGAGUCAUUUUCCUGUUUACAUUGUUUGUUUGGG | 2.67 |
| AAUCCUCACUGCCAGCCCCUCUUAAACAGGUAGAGAGCUGUGAGCCCCAGCCCCACCUGACUCCAGCACACCUGGCGAGUAGUAGCUGUCAAUAAAUCUAUGGUAAACAG | 0.379 |
| GAUGAGUUAAAGUUGUAUUCUGAAAUCAUGAAGCCAGAGCCUGUGCCAGACCUUCUGCUACCUCUCAUAGAAUUGCUCUGUAAUUCUAAAUUUAAAAUUAGAAGUAGAGA | 0.299 |
| AGGAAAGGUGCUACUGUGUGGGUCUGGAACCUGUGAAUGAAUCACUCCUGGGGUUUCGUUUCUAUGUGAGAGACGGGGACCCGGUUCUGUUGUGUGCAGCUUUAGCGGCA | 0.631 |
| ACAUGAUGACUGGAAGUCAUGUCUUCUAAUUGGUUGACAUUUUGCAAACAAAUAAAUUGUAAUCAAAAGAGCUCUAAAUUUGUAAUUUCUUUCUCCUUUCAAAAAAUGUC | 0.78 |
| AGCGAGUCCGGAUUUAAGGAGGCAGCCUUGUUCCAGAAUGUCCUGAGACAGAGAUCGUGAAAGAAGAAGUCGUGAGCCUGCGGUCCAGUCAGUCCAGCUCGGGACCGAUG | 0.427 |
| GUUAGAAUACAGUUCUCUGGCCACAGCUGAUGAGGGCUUUCUGUACUGCACACAGAUUGUGUACUGCACCCCAGUCCAGGUGACUGGUACCCACUCGAGUUGUGCCGUGC | 0.809 |
| UAUUCCAAUGGCGGAUGGUAAUAUUCACCAUCUCUAAUUCAUUGGUCACUGGUAGGUAAGCAUGAGUUAAGGAAAGUCAAAAAUGAAAAUAUAUUUUGCUGUGUAUAAAU | 18.7 |
| CCUUGCAAGAUACCGAUAUUCAAGCUGUUGACAUACUCGUUGCCUACUUUAACAACUGUCAGAGAAACGUGAUGGGGGUAAGGAGGUACUUUUUAAAAUCGUUCAUAGAC | 0.398 |
| GGCCUCCUCCAUCAGAUGCCUGGGCCUCCUCCAUCAGAUGUCUGGGCCUCCUCCAUCAGAUGUCUGGGCCUCCUCCAGCUGGUGCCUGGACAUUCACCGUUUAUACAUGG | 0.306 |
| AAAGGGUCAGGCCCGUCAGCAUCACUGAUGGGAAUAAAAGUAUUAAUGCUUUGUGACAGCCUCUGCCAUAAGAGUUGUGUGGUCCAGGGGGUCUGUGACCCCCCCCAGGG | 0.266 |
| ACAUCACCAUGUUCCUUGUUAACAUUUUUCUUUUCGCAGAGAGGAAAAUAUGUUUUUGCUGCUUUAUAUAAAAGUGAUUUUUAAGUUAUUUUAAAGAUCUAGCUUCCCUA | 0.521 |

Study 2
Target: Interferon regulatory factor 5, full length, phosphomimetic (IRF5, Homo sapiens, UniProt Q13568-2, residues 1-514, S451D/S453D/S456D/S462D)
Technique: protein-binding microarray
Form: double-stranded DNA, one strand shown
Medium: in vitro
Tested at: 940 nM top
Setting: 60-bp whole probe
Added: salmon DNA 0.4 mg/ml
Baseline: random background probes
Reading: higher = stronger binding
Constant ends, left off below: GCCTAGCAC … GTCTTGATTCGCTTGACGCTGCTG
| Strand | fitted relative affinity |
| --- | --- |
| CACGGACTGGACACTGGGGACGTGCTA | -0.829 z-score |
| TTGGGTCTCGGTCTCGGTTAGTGCTAG | 5.07 z-score |
| TTAGGTTTCGACTGTCGGTTAGTGCTA | 10.1 z-score |
| CAGCATCTGCAACATCTACAAGTGCTA | 0.0394 z-score |
| GACGGTATCGGTCACGGGACGTGCTAG | 8.36 z-score |
| TTAGGTATCTACTATCGGTTAGTGCTA | 1.63 z-score |
| TTAGATTTCATTTCCGATTAGTGCTAG | 1.28 z-score |
| TCATATCACTATTCTAGGACTGTGCTA | 0.762 z-score |
| GTCGGTCTCGGTATCGGGACGTGCTAG | 6.87 z-score |
| TTAGATAGCGGGACTGGATTAGTGCTA | -0.439 z-score |
| TATTTTTTTTATTTATAAATGTGCTAG | 0.636 z-score |
| GAGTTCCTCTCTAGGCACTGGTGCTAG | 0.519 z-score |
| TACGAACTGAGACTGGAGACGTGCTAG | -0.354 z-score |
| AACTTTCTCTGCTCTTTTCAAGTGCTA | 2.24 z-score |
| AAGCAAGGTGGAGAAGAGAAGTGCTAG | -0.723 z-score |
| TTAGGACTGCTTATCCTTTGGTGCTAG | -0.307 z-score |
| TTAGATTTCAGTTACGATTAGTGCTAG | 1.03 z-score |
| GACGGTAGCGGGACTGGGGACGTGCTA | -0.33 z-score |
| GACGATTCCAGTTTCGATACGTGCTAG | 7.9 z-score |
| TCAATATTCATTTTATTACTGTGCTAG | 0.757 z-score |
| TTACGTCTCGGTCTCGGTTAGTGCTAG | 6.23 z-score |
| TCACATATACACATCTTACTGTGCTAG | 0.922 z-score |
| CTTTCTTTATGTACTCTCTCCGTGCTA | 1.89 z-score |
| GATGGTATCGGACTGGGGACGTGCTAG | 4 z-score |

Study 3
Target: RING finger protein unkempt homolog, zinc fingers 1-6, GST-SBP tag (UNK, Homo sapiens, UniProt Q9C0B0, residues 30-357)
Sequence of UniProt Q9C0B0 (30-357, looked up): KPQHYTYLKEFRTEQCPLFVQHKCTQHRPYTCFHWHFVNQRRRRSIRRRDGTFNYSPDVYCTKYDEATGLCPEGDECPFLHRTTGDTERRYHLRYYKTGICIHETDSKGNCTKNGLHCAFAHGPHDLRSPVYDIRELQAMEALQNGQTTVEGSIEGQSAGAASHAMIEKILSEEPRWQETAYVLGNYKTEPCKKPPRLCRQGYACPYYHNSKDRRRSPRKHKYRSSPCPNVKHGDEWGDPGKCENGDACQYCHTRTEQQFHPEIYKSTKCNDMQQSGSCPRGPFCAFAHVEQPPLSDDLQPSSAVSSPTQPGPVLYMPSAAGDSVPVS
Technique: RNA Bind-n-Seq
Form: RNA
Medium: in vitro
Tested at: not given
Setting: RNA with constant flanks, human and mouse sites, ends assumed
Baseline: input RNA pool
Reading: higher = stronger binding
Constant ends, left off below: GGGAGUUCUACAGUCCGACGAUC … CAACAGAGGAUUGAGCAUCA
| Strand | bound/input enrichment |
| --- | --- |
| CAGUUAAAGUAUCAGAGGAUCUUGGAGCGCCUGGAAAAGGAGAACAAAGAGCUGCGGAAGCUGGUGCUGCAGAAGGACGACAAAGGCAUCCACCACAGGAAGCUCAAGAAAUCUUUGAUU | 0.192 ratio |
| AAGUCCCUGUUAUACUGAGUCAAAUCCAUUUUCUGGGUGAAUAAAUUUGGCCCUGCAGUGUAGCUCUUGUUCACCCUUUCCUUCCUUGGUGUUGUGUGUGAGAGAUGAGUGUUUUCCUGU | 0.184 ratio |
| UUUACCACCAGAGACUUCUCCAUUCGGUCCCUAGCCGACCGCUUGGGAGACUUGAAUUACCUUAUCUACGUGUUUCCUGAUCGGCCAAAAGAUGAAGUAUACUCCAAAUACUACACACCA | 0.214 ratio |
| GCUGUGCAGUUCUUGCCUCCCUCACGGGGCGUCACCCCCAGCCCAGCUCCGUUGUACAUAAAUGCCUUGUGGCAGAGCUCCCGGUGAACUUCUGGAUCCCGUUUCUGAUGCAGACUCUUG | 0.0928 ratio |
| GUGGUGACUUGGGAUUUUUAACCUUAUAUAUCUUUUUCCUUUACUCAAAACAAAACAAUUUUUAGCACACUGAAAAAAAAAAAAAGCCAAAUGUUUUGUGCCUUUCUAAGGCAGCACUGU | 3.6 ratio |
| UACCUCUUACAAAAAAAAGAAAAAAAAAGAAAAAGUUCAUUUCUUCAUUCUGUUUGUAUCUAGCGAAGCUGAAUGUCAGAAGCCCCUCUGUCCACACACAAAGUCUGCAUGUAUUGGUCG | 0.708 ratio |
| AAAAUCCUCCCUCAAAGGAUUCGGGAGCUGGUACCCGAGUCCCAGGCUUACAUGGACCUCCUAGCAUUUGAGAGGAAACUGGAUCAAACCAUCAUGCGGAAGCGGGUGGACAUCCAGGAG | 0.184 ratio |
| UUGCCCAGAUAGGGUCCCCUUCUCAUUCACAAAGUGCCCCCUCCAUGUCCCUGGACCCUUAGGAUACCCCCUGGGGCCCCCAAGUCAGAGACUGUCUGACUCAGGUUAUGCCUACAGAGU | 0.408 ratio |
| CUUUGUGUGCCGCUGUUUGACGGUUCGUGUCGUUUUAUUGACCCACAGACUAUUCAGUCUAUCCAGCAGUGCCAUUUACUGCUUAGCAACCUUAGUACAGUCUUAAGCUGUUUUGCAAUG | 3.62 ratio |
| GGAUUGGACCAGAUUAAGACACGAGAAGCAGUUGCCACACUUCACAAGGAUGGCAUAGAGUUUGCAUUUAAAUACCAAAAUCAGAAAGGACAAGAGUAUCCACCUCCUAAUCUGGCUUUU | 0.256 ratio |
| CUCUGUCCUGAGUGUGAGAAUCCUGAAACAGAUCUGCAUGUCAAUCCAAAGAAGCAAACAAUAGGUAAUUCUUGUAAAGCCUGUGGGUACCGAGGCAUGCUUGACACACAUCAUAAACUC | 0.233 ratio |

Study 4
Target: CCNA2, cyclin fold, Cln2 fusion (human)
Technique: yeast growth competition, sequencing
Medium: yeast
Setting: strong parent motif
Baseline: not given
Reading: higher = stronger binding
Parent: RBL2 docking peptide (human); STTRRRLFVENDS
| Variant | normalised enrichment score |
| --- | --- |
| F8M | 1.37 |
| D12N | 5.18 |
| N11Q | 5.91 |
| S1Y | 5.39 |
| R6L | 2.96 |
| V9R | 5.38 |
| T2C | 5.14 |
| E10H | 4.73 |
| N11S | 5.93 |
| F8A | 0.983 |
| T3G | 3.42 |
| S1T | 5.21 |
| L7V | 0.904 |
| R5H | 1.09 |
| R4Q | 1.17 |
| S1N | 5.75 |
| V9E | 5.57 |

Study 5
Target: Histone acetyltransferase KAT6A, both winged helices, GST fusion (KAT6A, Homo sapiens, UniProt Q92794, residues 1-181)
Technique: protein binding microarray
Form: double-stranded DNA, one strand shown
Medium: in vitro
Tested at: not given
Setting: 8-mer, flanks averaged, mean of 2 arrays, mostly near background
Baseline: not given
Reading: higher = stronger binding
Target sequence (chain): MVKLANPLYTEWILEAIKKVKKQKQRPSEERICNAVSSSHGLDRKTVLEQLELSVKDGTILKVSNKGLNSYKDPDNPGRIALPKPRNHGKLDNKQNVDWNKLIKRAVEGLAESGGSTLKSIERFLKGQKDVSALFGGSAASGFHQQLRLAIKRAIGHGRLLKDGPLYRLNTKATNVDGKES
| Strand | E-score |
| --- | --- |
| GGCTTTAA | -0.12 |
| CACAAAAA | -0.0986 |
| CCCTCTCC | -0.209 |
| TACCACTA | -0.121 |
| ACGCCCCC | 0.12 |
| CGTCAAGC | 0.0532 |
| ACGATTTA | -0.00963 |
| AGTTTAAT | 0.0243 |
| TCCCCCCA | -0.342 |
| GCGCTGGA | 0.257 |
| CGTCACCA | -0.0262 |
| CCTATGGC | -0.00995 |
| AGCCAGTA | -0.186 |
| AAGCAAGA | -0.174 |
| TGCTAACA | -0.12 |
| ATGCACAC | -0.0156 |
| CTTAACTA | 0.0124 |
| TACGTTCA | -0.0858 |
| CTTCCGTA | 0.247 |
| AACGACAT | -0.0332 |
| CATTTCGG | -0.0751 |
| AACATTGA | 0.0792 |
| AGGCCATG | -0.195 |
| CAAACGCC | -0.0174 |
| CCTCATGC | -0.155 |

Some of these lines once more (study 4):
| Variant | normalised enrichment score |
| --- | --- |
| S1Y | 5.39 |
| R6L | 2.96 |
| D12N | 5.18 |
| V9E | 5.57 |
| L7V | 0.904 |
| S1N | 5.75 |
| S1T | 5.21 |
| T3G | 3.42 |
